Published values gathered from unrelated publications.
A part holds a random share of what one study measured. Several values in a cell are separate wells, animals, samples, runs or records. pKi: −log10 of the molar value.
Chain of UniProt Q5BJF2 (whole entry, looked up): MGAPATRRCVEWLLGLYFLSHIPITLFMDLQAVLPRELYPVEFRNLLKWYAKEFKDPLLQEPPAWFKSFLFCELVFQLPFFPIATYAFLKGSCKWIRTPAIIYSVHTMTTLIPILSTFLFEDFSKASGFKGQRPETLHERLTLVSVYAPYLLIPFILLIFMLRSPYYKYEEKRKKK

Block 1
Organism: Sarcocystis neurona
Observed: parasite activity
Concentration: 10 µM
Time: 96 h
`CNCC[C@@H](Oc1ccccc1C)c1ccccc1`: activity class “inactive”.
`CC[C@H](C)C(=O)O[C@H]1C[C@@H](C)C=C2C=C[C@H](C)[C@H](CC[C@@H]3C[C@@H](O)CC(=O)O3)[C@H]21` — result for activity class: “inactive”.
`C#C[C@]1(O)CC[C@H]2[C@@H]3CCC4=Cc5oncc5C[C@]4(C)[C@H]3CC[C@@]21C`: activity class “inactive”.
`Fc1ccc([C@@H]2CCNC[C@H]2COc2ccc3c(c2)OCO3)cc1` — result for activity class: “inactive”.
`Cc1occc(=O)c1O`: activity class “inactive”.
Under activity class, `CCN1CCC[C@H]1CNC(=O)c1cc(S(N)(=O)=O)ccc1OC` is recorded as “inactive”.
`CCCN(CCC)S(=O)(=O)c1ccc(C(=O)O)cc1` — result for activity class: “inactive”.
For `COc1ccc(/C=C/C(=O)Nc2ccccc2C(=O)O)cc1OC`, activity class read “inactive”.

Block 2
Compound: CC(=O)N[C@@H](Cc1c[nH]c2ccccc12)C(=O)N[C@@H](CCC(=O)C=[N+]=[N-])C(=O)OC(C)C
The tumour volume was 0 mm3 (mice, MC-38 tumour rechallenge; 1 mg/kg, day 39 after injection).
mice, MC-38 tumour rechallenge; 0.26 mg/kg, day 67 after injection — tumour volume: 0 mm3.
For mouse, EL4 tumour; subcutaneous, 1 mg/kg, day 11: tumour volume read 156 mm3 and 32.3 mm3 and 28.8 mm3 and 298 mm3 and 0 mm3 and 311 mm3.
For mouse, EL4 tumour; subcutaneous, 1 mg/kg, day 17: tumour volume read 0 mm3.
For mice, MC-38 tumour rechallenge; 1 mg/kg, day 46 after injection: tumour volume read 0 mm3.
For C57BL/6 CES1-/- mouse, EL4 tumour; intravenous, 1 mg/kg DON equivalent, treatment day 15, 5 days per week: tumour volume read 110 mm3 and 113 mm3 and 0 mm3 and 80.9 mm3 and 179 mm3 and 230 mm3 and 84.2 mm3.
The tumour volume was 31.8 mm3 and 0 mm3 and 35 mm3 (mice, MC-38 tumour rechallenge; 1 mg/kg, day 8 after injection).
For mice, MC-38 tumour rechallenge; 1 mg/kg, day 60 after injection: tumour volume read 0 mm3.
The tumour volume was 0 mm3 (mice, MC-38 tumour rechallenge; 1 mg/kg, day 64 after injection).

Block 3
Cell line: mouse MPNST tumor cells
Technique: high-content immunofluorescence imaging
Measured: nuclear SOX9
Concentration: 10 µM
Time: 12 h
Notes: mean of 2 replicates
Relative to: DMSO control
Direction: higher = more nuclear SOX9
Under “nuclear SOX9 intensity”, `NC(=O)c1ncn([C@@H]2O[C@H](CO)[C@@H](O)[C@H]2O)c1N` is recorded as 92 % of DMSO.
`COCCc1ccc(OCC(O)CNC(C)C)cc1` (stereo not drawn): “nuclear SOX9 intensity” 111 % of DMSO.
For `CC(CNC1CCCCC1)OC(=O)c1ccccc1` (stereo not drawn), “nuclear SOX9 intensity” read 102 % of DMSO.
For `CCN(CC)Cc1ccc2cc(COC(=O)Nc3ccc(C(=O)NO)cc3)ccc2c1`, “nuclear SOX9 intensity” read 207 % of DMSO.
`NS(=O)(=O)c1cc(C2(O)NC(=O)c3ccccc32)ccc1Cl` (stereo not drawn) — result for “nuclear SOX9 intensity”: 97.1 % of DMSO.
`Cc1cc(Cn2c(=O)n(Cc3cnc(C)s3)c(=O)c3cc(S(=O)(=O)NC4(C)CC4)ccc32)n(C)n1`: “nuclear SOX9 intensity” 109 % of DMSO.
`N=C(N)NC(=O)Cc1c(Cl)cccc1Cl` — result for “nuclear SOX9 intensity”: 102 % of DMSO and 95.1 % of DMSO.
For `O=C(O)c1cc([N+](=O)[O-])ccc1NCCCc1ccccc1`, “nuclear SOX9 intensity” read 99 % of DMSO.

Mixed results
The pKi of `O=C(Nc1cccnn1)N1CC(CC=Cc2cncc(Oc3ccc(C(F)(F)F)cn3)n2)C1` is reported as 5.08 (Sigma intracellular receptor 2 (TMEM97, Homo sapiens, UniProt Q5BJF2); GPCR binding panel).
`Cn1cncc1[C@@](O)(COc1ccc(C#N)cc1-c1ccc(OC(F)(F)F)cc1)c1ccc(C#N)cc1` gave a mitotic cells of 83.3% and 78.4% (HEK293T; high-content imaging; 10 µM, 0 h).

For quick reference, copied from above (block 3):
`Cc1cc(Cn2c(=O)n(Cc3cnc(C)s3)c(=O)c3cc(S(=O)(=O)NC4(C)CC4)ccc32)n(C)n1`: “nuclear SOX9 intensity” 109 % of DMSO.
`N=C(N)NC(=O)Cc1c(Cl)cccc1Cl` — result for “nuclear SOX9 intensity”: 102 % of DMSO and 95.1 % of DMSO.
